Measured values gathered from unrelated publications.
Lines come from different studies, so protocols differ.
UniProt Q13547, sequence (whole entry, looked up): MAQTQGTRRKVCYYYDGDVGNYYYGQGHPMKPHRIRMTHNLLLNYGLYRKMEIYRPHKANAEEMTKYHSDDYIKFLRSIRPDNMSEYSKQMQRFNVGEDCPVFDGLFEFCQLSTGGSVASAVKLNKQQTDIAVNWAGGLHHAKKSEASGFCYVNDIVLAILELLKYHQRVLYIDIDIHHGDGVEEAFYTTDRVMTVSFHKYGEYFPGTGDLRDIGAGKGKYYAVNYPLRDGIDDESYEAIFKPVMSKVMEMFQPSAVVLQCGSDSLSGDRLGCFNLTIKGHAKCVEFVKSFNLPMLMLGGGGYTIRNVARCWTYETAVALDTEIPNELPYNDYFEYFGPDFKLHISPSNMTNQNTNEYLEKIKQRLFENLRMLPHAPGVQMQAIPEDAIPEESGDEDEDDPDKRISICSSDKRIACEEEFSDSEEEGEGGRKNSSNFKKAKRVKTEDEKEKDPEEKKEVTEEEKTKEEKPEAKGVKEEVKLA

SMILES	tested on	test	system	conditions	how to read	quantity	result
CCCCCCCCCCCC(=O)C(F)(F)P(=O)(O)O	Streptococcus pneumoniae	–	–	–	–	MIC	> 200 µg/mL
N=C(N)c1ccc(OCc2ccccc2COc2ccc(C(=N)N)cc2)cc1	Escherichia coli	–	mcr-1	20 h, in combination, checkerboard, with: rifampicin	–	MIC	25 µg/mL
CC[C@H](C)[C@H](NC(=O)CN)C(=O)NCC(=O)N[C@@H](C)C(=O)N[C@H](C(=O)N[C@@H](CC(C)C)C(=O)N[C@@H](CCCCN)C(=O)N[C@H](C(=O)N[C@@H](CC(C)C)C(=O)N[C@H](C(=O)N[C@H](C(=O)NCC(=O)N[C@@H](CC(C)C)C(=O)N1CCC[C@H]1C(=O)N[C@@H](C)C(=O)N[C@@H](CC(C)C)C(=O)N[C@H](C(=O)N[C@@H](CO)C(=O)N[C@@H](Cc1c[nH]c2ccccc12)C(=O)N[C@H](C(=O)N[C@@H](CCCCN)C(=O)N[C@@H](CCCNC(=N)N)C(=O)N[C@@H](CCCCN)C(=O)N[C@@H](CCCNC(=N)N)C(=O)N[C@@H](CCC(N)=O)C(=O)N[C@@H](CCC(N)=O)C(N)=O)[C@@H](C)CC)[C@@H](C)CC)[C@@H](C)O)[C@@H](C)O)C(C)C)C(C)C	Candida albicans	broth microdilution	SP3876, RPMI 1640-MOPS	48 h, 30 °C	–	MIC	2 µM
CC1(C)SC2C(NC(=O)C(NC(=O)C3=C(O)C(Cc4ccco4)NC3=O)c3ccccc3)C(=O)N2C1C(=O)O (centres unmarked)	Escherichia coli	broth microdilution	ATCC 35218, low-level TEM-1	no clavulanic acid	–	MIC	> 200 µg/mL
CC(C)C[C@H](NC(=O)[C@H](CCCNC(=N)N)NC(=O)[C@H](Cc1c[nH]c2ccccc12)NC(=O)[C@H](CCCNC(=N)N)NC(=O)[C@H](Cc1c[nH]c2ccccc12)NC(=O)[C@H](Cc1c[nH]c2ccccc12)NC(=O)[C@H](Cc1c[nH]c2ccccc12)NC(=O)[C@H](CCCNC(=N)N)NC(=O)[C@H](Cc1c[nH]c2ccccc12)NC(=O)[C@@H](N)CCCNC(=N)N)C(N)=O	Candida albicans	–	CGMCC 2.209	no added salts	–	MIC	8 µM
N=C(N)c1ccc(OCCCCCOc2ccc(C(=N)N)cc2)cc1	Escherichia coli	–	BW25113 mcr-1	in combination, checkerboard, with: rifampicin	–	MIC	50 µg/mL
N=C(N)NCCC[C@H](NC(=O)[C@H](Cc1c[nH]c2ccccc12)NC(=O)[C@H](CCCNC(=N)N)NC(=O)[C@H](Cc1c[nH]c2ccccc12)NC(=O)[C@H](Cc1c[nH]c2ccccc12)NC(=O)[C@H](Cc1c[nH]c2ccccc12)NC(=O)[C@H](CCCNC(=N)N)NC(=O)[C@H](Cc1c[nH]c2ccccc12)NC(=O)[C@@H](N)CCCNC(=N)N)C(N)=O	Candida albicans	broth microdilution	CGMCC 2.209, RPMI 1640-MOPS	48 h, 30 °C, with: FeCl3 4 µM	–	MIC	4 µM
CCCCCCCC(=O)CP(=O)(O)O	Streptococcus pneumoniae	–	–	–	–	MIC	> 200 µg/mL
CC[C@H](C)[C@H](NC(=O)CN)C(=O)NCC(=O)N[C@@H](C)C(=O)N[C@H](C(=O)N[C@@H](CC(C)C)C(=O)N[C@@H](CCCCN)C(=O)N[C@H](C(=O)N[C@@H](CC(C)C)C(=O)N[C@H](C(=O)N[C@H](C(=O)NCC(=O)N[C@@H](CC(C)C)C(=O)N1CCC[C@H]1C(=O)N[C@@H](C)C(=O)N[C@@H](CC(C)C)C(=O)N[C@H](C(=O)N[C@@H](CO)C(=O)N[C@@H](Cc1c[nH]c2ccccc12)C(=O)N[C@H](C(=O)N[C@@H](CCCCN)C(=O)N[C@@H](CCCNC(=N)N)C(=O)N[C@@H](CCCCN)C(=O)N[C@@H](CCCNC(=N)N)C(=O)N[C@@H](CCC(N)=O)C(=O)N[C@@H](CCC(N)=O)C(N)=O)[C@@H](C)CC)[C@@H](C)CC)[C@@H](C)O)[C@@H](C)O)C(C)C)C(C)C	Candida albicans	broth microdilution	CGMCC 2.209, RPMI-1640	48 h, 30 °C	–	MIC	4 µM
C[C@H](NC(=O)[C@H](CCCNC(=N)N)NC(=O)[C@H](Cc1c[nH]c2ccccc12)NC(=O)[C@H](CCCNC(=N)N)NC(=O)[C@H](Cc1c[nH]c2ccccc12)NC(=O)[C@H](Cc1c[nH]c2ccccc12)NC(=O)[C@H](Cc1c[nH]c2ccccc12)NC(=O)[C@H](CCCNC(=N)N)NC(=O)[C@H](Cc1c[nH]c2ccccc12)NC(=O)[C@@H](N)CCCNC(=N)N)C(N)=O	Candida albicans	broth microdilution	CGMCC 2.209, RPMI 1640-MOPS	48 h, 30 °C, with: CaCl2 2 mM	–	MIC	32 µM
CC1(C)SC2C(NC(=O)C(NC(=O)C3=C(O)C4(CC4)NC3=O)c3ccccc3)C(=O)N2C1C(=O)O (centres unmarked)	Escherichia coli	broth microdilution	isolate IU, CTX-M-14, TEM-1	with: clavulanic acid 6 µg/mL	–	MIC	> 200 µg/mL
CNCCC=C1c2ccccc2CCc2ccccc21	Plasmodium falciparum	–	GB4	–	–	IC50	6.31 µM
CC1(C)SC2C(NC(=O)C(NC(=O)C3=C(O)C(Cc4ccc([N+](=O)[O-])cc4)NC3=O)c3ccccc3)C(=O)N2C1C(=O)O (centres unmarked)	Escherichia coli	broth microdilution	isolate IU, CTX-M-14, TEM-1	no clavulanic acid	–	MIC	> 200 µg/mL
C[C@H](NC(=O)[C@H](CCCNC(=N)N)NC(=O)[C@H](Cc1c[nH]c2ccccc12)NC(=O)[C@H](CCCNC(=N)N)NC(=O)[C@H](Cc1c[nH]c2ccccc12)NC(=O)[C@H](Cc1c[nH]c2ccccc12)NC(=O)[C@H](Cc1c[nH]c2ccccc12)NC(=O)[C@H](CCCNC(=N)N)NC(=O)[C@H](Cc1c[nH]c2ccccc12)NC(=O)[C@H](CCCNC(=N)N)NC(=O)CN)C(N)=O	Candida albicans	broth microdilution	CGMCC 2.209, RPMI 1640-MOPS	48 h, 30 °C, with: NH4Cl 6 µM	–	MIC	4 µM
O=C(O)c1cccc(C(=O)O)n1	Providencia stuartii	–	NDM-1 producer	32 µg/mL, MIC of meropenem, with: meropenem	–	MIC	0.25 µg/mL
C=CCCCCCCCCC(=O)C(F)(F)P(=O)(O)O	Streptococcus pneumoniae	–	–	–	–	MIC	> 200 µg/mL
CC[C@H](C)[C@H](NC(=O)[C@@H](NC(=O)[C@H](Cc1ccccc1)NC(=O)CNC(=O)[C@H](CCC(N)=O)NC(=O)[C@H](CCCCN)NC(=O)[C@H](C)N)C(C)C)C(=O)N[C@@H](Cc1ccc(O)cc1)C(=O)N[C@@H](CCCNC(=N)N)C(=O)N[C@H](C(=O)N[C@@H](CCCNC(=N)N)C(=O)N[C@H](C(=O)N[C@@H](CCCNC(=N)N)C(=O)N[C@@H](CCCNC(=N)N)C(=O)NCC(=O)N[C@@H](CC(N)=O)C(=O)N[C@@H](CCCNC(=N)N)C(=O)N[C@@H](CCCCN)C(N)=O)C(C)C)C(C)C	Salmonella typhimurium	broth dilution	SL1344	–	–	MIC	12.5 µM
CC(C)CC1NC(=O)C(C(=O)NC(C(=O)NC2C(=O)N3C2SC(C)(C)C3C(=O)O)c2ccccc2)=C1O (centres unmarked)	Escherichia coli	broth microdilution	ATCC 35218, low-level TEM-1	with: clavulanic acid 6 µg/mL	–	MIC	50 µg/mL
C[C@H]1CN(c2n[nH]c3nc(N[C@H]4CC[C@H](NS(=O)(=O)CCC(F)(F)F)CC4)ncc23)CCO1	HDAC1 (Homo sapiens, UniProt Q13547)	inhibitor, Kinobeads competition profiling	–	0.032 µM	baseline: vehicle	relative abundance	1.07
CC(=O)N1CCN(c2ccc(OCC3COC(Cn4ccnc4)(c4ccc(Cl)cc4Cl)O3)cc2)CC1 (centres unmarked)	Candida albicans	broth microdilution	56214, RPMI 1640-MOPS	48 h, 30 °C	–	MIC	64 µM
CC[C@H](C)[C@H](NC(=O)[C@H](CCCCN)NC(=O)[C@@H](NC(=O)[C@H](Cc1ccc(O)cc1)NC(=O)[C@H](CCCCN)NC(=O)[C@H](CCCCN)NC(=O)CNC(=O)[C@H](CCCCN)NC(=O)[C@@H](NC(=O)[C@H](C)NC(=O)[C@H](CC(C)C)NC(=O)[C@H](Cc1c[nH]c2ccccc12)NC(=O)CNC(=O)[C@@H](NC(=O)[C@H](Cc1ccccc1)NC(=O)[C@H](CCCCN)NC(=O)[C@H](CC(C)C)NC(=O)[C@H](Cc1ccccc1)NC(=O)[C@H](C)NC(=O)CNC(=O)[C@@H](N)CCSC)C(C)C)[C@@H](C)O)C(C)C)C(=O)N[C@@H](C)C(=O)N[C@@H](Cc1c[nH]c2ccccc12)C(=O)N[C@@H](CC(=O)O)C(=O)N[C@@H](Cc1c[nH]cn1)C(=O)N[C@@H](CCCCN)C(=O)NCC(=O)N[C@H](C(=O)N[C@H](C(=O)N[C@@H](CCSC)C(=O)N[C@@H](CCCCN)C(=O)N[C@@H](Cc1c[nH]c2ccccc12)C(=O)N[C@@H](CC(C)C)C(=O)N[C@@H](CC(N)=O)C(=O)N[C@@H](C)C(=O)NCC(=O)N[C@@H](CCC(N)=O)C(=O)N[C@H](C(=O)N[C@@H](Cc1ccccc1)C(=O)N[C@H](C(=O)N[C@@H](Cc1c[nH]c2ccccc12)C(=O)N[C@H](C(=O)N[C@@H](Cc1ccc(O)cc1)C(=O)N[C@@H](CCC(=O)O)C(=O)N[C@@H](CCC(N)=O)C(=O)N[C@H](C(=O)N[C@@H](CCCCN)C(=O)N[C@@H](CCCCN)C(=O)N[C@@H](CC(C)C)C(=O)N[C@@H](Cc1c[nH]c2ccccc12)C(=O)N[C@H](C(=O)O)[C@@H](C)O)[C@@H](C)CC)C(C)C)[C@@H](C)O)[C@@H](C)O)[C@@H](C)CC)[C@@H](C)O	Streptococcus suis	broth microdilution	CECT 958	37 °C	–	MIC	3.9 µg/mL
O=C(NN=Cc1ccc(O)c(Br)c1)c1cccc(Br)c1	Cryptococcus neoformans	–	–	compound alone, with: tunicamycin	–	MIC	0.3 µg/mL
c1ccc(CCOC2CCCc3c2[nH]c2ccccc32)cc1 (centres unmarked)	Staphylococcus simulans	broth microdilution	22	–	–	MIC	> 16 µg/mL
CC1(C)SC2C(NC(=O)C(NC(=O)C3=C(O)C(c4ccccc4)NC3=O)c3ccccc3)C(=O)N2C1C(=O)O (centres unmarked)	Escherichia coli	broth microdilution	ATCC 35218, low-level TEM-1	no clavulanic acid	–	MIC	> 200 µg/mL
Cc1ccccc1C(=O)NN=Cc1ccc(O)c(Br)c1	Cryptococcus neoformans	–	–	compound alone, with: tunicamycin	–	MIC	1 µg/mL
CC1(C)SC2C(NC(=O)C(NC(=O)C3=C(O)CN(c4ccccc4)C3=O)c3ccccc3)C(=O)N2C1C(=O)O (centres unmarked)	Escherichia coli	broth microdilution	Keio mutant JW0146-2	18 h, ferric hydroxamate uptake gene	–	MIC	50 µg/mL
CCCCCCCNC(=O)CP(=O)(O)O	Streptococcus pneumoniae	–	–	–	–	MIC	> 200 µg/mL
CC1(C)SC2C(NC(=O)C(NC(=O)C3=C(O)C(Cc4ccc(O)cc4)NC3=O)c3ccccc3)C(=O)N2C1C(=O)O (centres unmarked)	Escherichia coli	broth microdilution	Keio mutant JW5195-1	18 h	–	MIC	25 µg/mL
CC[C@H](C)[C@H](NC(=O)[C@H](CC(C)C)NC(=O)CNC(=O)[C@H](CCCCN)NC(=O)[C@H](CC(C)C)NC(=O)[C@@H](NC(=O)[C@H](CCCCN)NC(=O)[C@@H](NC(=O)[C@@H](NC(=O)[C@H](CCC(N)=O)NC(=O)[C@H](CC(N)=O)NC(=O)[C@@H](NC(=O)[C@@H](NC(=O)[C@H](CC(=O)O)NC(=O)[C@H](CO)NC(=O)[C@@H](N)CCSC)[C@@H](C)CC)[C@@H](C)CC)[C@@H](C)CC)C(C)C)C(C)C)C(=O)N[C@@H](CC(=O)O)C(=O)N[C@@H](CCCCN)C(=O)N[C@@H](CC(C)C)C(=O)N[C@H](C(=O)N[C@@H](CCCCN)C(=O)N[C@@H](CCCCN)C(=O)O)[C@@H](C)O	Bifidobacterium adolescentis	broth microdilution	DSM 108263	–	–	MIC	5.01 µM

A few entries again:
SMILES	tested on	test	system	conditions	how to read	quantity	result
CC1(C)SC2C(NC(=O)C(NC(=O)C3=C(O)C(c4ccccc4)NC3=O)c3ccccc3)C(=O)N2C1C(=O)O (centres unmarked)	Escherichia coli	broth microdilution	ATCC 35218, low-level TEM-1	no clavulanic acid	–	MIC	> 200 µg/mL
Cc1ccccc1C(=O)NN=Cc1ccc(O)c(Br)c1	Cryptococcus neoformans	–	–	compound alone, with: tunicamycin	–	MIC	1 µg/mL
CC1(C)SC2C(NC(=O)C(NC(=O)C3=C(O)CN(c4ccccc4)C3=O)c3ccccc3)C(=O)N2C1C(=O)O (centres unmarked)	Escherichia coli	broth microdilution	Keio mutant JW0146-2	18 h, ferric hydroxamate uptake gene	–	MIC	50 µg/mL
CCCCCCCNC(=O)CP(=O)(O)O	Streptococcus pneumoniae	–	–	–	–	MIC	> 200 µg/mL
